Measured values pooled from the literature.
Protocols differ between the studies behind these lines. “And” joins repeats or separate records; there may be more than shown.

COc1ccc(CNc2nc([C@H]3CC[C@H](C(=O)O)CC3)nc3sc4ccccc4c23)cc1Cl — body weight (NSG mice; dose not given, day 4): 22.1 g and 21.5 g and 19.2 g and 21.6 g
COc1cc(N2CCN(C(=O)C3CCCN3)CC2)ccc1Nc1ncc(Cl)c(Nc2ccccc2P(C)(C)=O)n1 (stereo not drawn) — body weight (nude mice, NCI-H3122 xenograft; intraperitoneal, 10 mg/kg every other day, day 7): 22.8 g and 27.1 g and 24.9 g and 24.5 g and 25.5 g
CC(C)NCC(SS(=O)(=O)O)c1ccccc1 (stereo not drawn) — body weight decrease (Swiss Webster mice, Schistosoma mansoni infected; 100 mg/kg; baseline: vehicle control): 5.55%
CC(=O)N1CCN(C(=O)c2ccc(Nc3nccc(-c4ccc(Cl)cc4)n3)cc2)CC1 — body weight (NSG mice; dose not given, day 5): 26.2 g and 25.3 g and 24.3 g
CCCCCCC(CSS(=O)(=O)O)NCC(C)C (stereo not drawn) — body weight decrease (Swiss Webster mice, Schistosoma mansoni infected; 100 mg/kg; baseline: vehicle control): 9%
Cc1cnc2nc1Nc1cccc(c1)COC/C=C/COCc1cc(ccc1OCCN1CCOCC1)N2 — body weight (BALB/c mice, rhEPO-induced polycythemia; 100 mg/kg, day 1): 18.5 g and 18.2 g and 18.8 g and 18 g and 19.4 g and 17.9 g
CCCCC(CSS(=O)(=O)O)NCC(C)C (stereo not drawn) — body weight decrease (Swiss Webster mice, Schistosoma mansoni infected; 100 mg/kg; baseline: vehicle control): 7%
CC[C@H](C)[C@H](NC(=O)C[C@H](NC(=O)CN1CCN2CCN(CC1)CC(=O)[O][Al]([18F])[O]C(=O)C2)C(=O)O)C(=O)N[C@H]1CCc2cccc3c2N(C1=O)[C@H](C(=O)NCc1cn[nH]n1)C3 — body weight (Kunming mice; intravenous, 18.5 MBq, 925 MBq/kg, 18 days; baseline: saline): no effect
O=C1NC(=O)/C(=C/c2ccc3ncnc(N4CCC(F)CC4)c3n2)S1 — body weight (NSG mice; dose not given, day 3): 22.7 g and 24.8 g and 22 g and 26.5 g
